Measurements collected from several papers.
Numbered parts are unrelated; each lists some results of a single study. Changes are numbered by the printed parent chain.

Sample 1
Target: tungstate, free oxyanion
Technique: microfluidic competitive inhibition
Medium: in vitro, cell-free expressed
Concentration: not given
Notes: derived from inhibition constants, unchanged parent 2230 nM
Direction: lower = stronger binding
Parent: PafA, mature enzyme, eGFP fusion (Elizabethkingia meningoseptica, UniProt Q9KJX5); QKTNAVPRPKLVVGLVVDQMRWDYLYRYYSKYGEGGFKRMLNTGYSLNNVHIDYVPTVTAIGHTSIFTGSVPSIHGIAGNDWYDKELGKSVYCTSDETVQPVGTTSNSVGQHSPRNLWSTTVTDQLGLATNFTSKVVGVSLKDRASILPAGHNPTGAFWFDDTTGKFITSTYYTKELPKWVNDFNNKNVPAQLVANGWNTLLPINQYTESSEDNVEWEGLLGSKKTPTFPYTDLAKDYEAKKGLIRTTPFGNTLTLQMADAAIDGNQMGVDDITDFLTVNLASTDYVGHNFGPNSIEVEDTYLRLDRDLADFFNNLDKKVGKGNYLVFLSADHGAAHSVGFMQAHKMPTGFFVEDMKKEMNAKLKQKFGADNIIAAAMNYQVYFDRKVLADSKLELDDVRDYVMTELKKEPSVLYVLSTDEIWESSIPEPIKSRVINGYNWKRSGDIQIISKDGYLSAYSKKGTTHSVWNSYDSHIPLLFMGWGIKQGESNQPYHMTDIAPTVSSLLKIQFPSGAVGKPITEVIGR
`I450V`: “oxyanion analog dissociation constant” 2.31 µM.
Under “oxyanion analog dissociation constant”, `R386G` is recorded as 2.48 µM.
`F341G` — result for “oxyanion analog dissociation constant”: 933 nM.
For `Y383V`, “oxyanion analog dissociation constant” read 2.28 µM.
`S392V`: “oxyanion analog dissociation constant” 2.58 µM.

Sample 2
Target: Interferon regulatory factor 7, full length, phosphomimetic (IRF7, Homo sapiens, UniProt Q92985, residues 1-503, S101K/S471D/S472D/S475D/S476D/S477D/S483D/S484D/S487D)
Technique: protein-binding microarray
Molecule type: double-stranded DNA, one strand shown
Medium: in vitro
Concentration: 250 nM
Notes: 60-bp whole probe
Added: salmon DNA 0.4 mg/ml
Relative to: random background probes
Direction: higher = stronger binding
All sequences stand within: GCCTAGCAC … GTCTTGATTCGCTTGACGCTGCTG
Construct (chain): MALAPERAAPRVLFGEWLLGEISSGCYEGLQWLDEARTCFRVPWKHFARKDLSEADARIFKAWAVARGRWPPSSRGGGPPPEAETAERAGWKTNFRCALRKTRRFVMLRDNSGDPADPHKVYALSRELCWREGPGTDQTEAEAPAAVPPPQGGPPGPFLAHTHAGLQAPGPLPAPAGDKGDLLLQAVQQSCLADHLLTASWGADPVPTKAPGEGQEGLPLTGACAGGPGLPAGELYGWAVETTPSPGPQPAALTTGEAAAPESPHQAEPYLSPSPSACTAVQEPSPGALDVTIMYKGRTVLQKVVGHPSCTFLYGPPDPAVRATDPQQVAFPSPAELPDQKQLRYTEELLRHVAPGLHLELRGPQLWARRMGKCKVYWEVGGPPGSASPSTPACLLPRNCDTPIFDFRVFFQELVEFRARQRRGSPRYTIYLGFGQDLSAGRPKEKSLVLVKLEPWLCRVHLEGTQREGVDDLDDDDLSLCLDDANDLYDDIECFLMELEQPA
The log fluorescence of `TTAGGTCCCGGTCTCGGTTAGTGCTAG` is reported as 2.3 z-score.
`TCACGTATATTCCCTAGAACTGTGCTA` has a log fluorescence of 0.659 z-score.
With `GACGATTTCTGGACTGGAGACGTGCTA` the log fluorescence was 0.237 z-score.
The log fluorescence of `TGGTCTCTAGTTAGAGAACTGTGCTAG` is reported as 2.97 z-score.
`GCATTTTTCTAACCCATTGAGTGCTAG` gave a log fluorescence of 0.872 z-score.
The log fluorescence of `TTAGGTTCTGGTTTCGGTTAGTGCTAG` is reported as 9.93 z-score.
For `GACGAACTGCGGTATCGAGACGTGCTA`, the log fluorescence was -0.294 z-score.
For `TTAGTTTTCGGTTTCGGTTAGTGCTAG`, the log fluorescence was 12.8 z-score.

Sample 3
Target: CCNB1, cyclin fold, Cln2 fusion (human)
Technique: yeast growth competition, sequencing
Medium: yeast
Notes: strong parent motif
Relative to: not given
Direction: higher = stronger binding
Parent: viral docking peptide; TSVRRALFTGGSD; partner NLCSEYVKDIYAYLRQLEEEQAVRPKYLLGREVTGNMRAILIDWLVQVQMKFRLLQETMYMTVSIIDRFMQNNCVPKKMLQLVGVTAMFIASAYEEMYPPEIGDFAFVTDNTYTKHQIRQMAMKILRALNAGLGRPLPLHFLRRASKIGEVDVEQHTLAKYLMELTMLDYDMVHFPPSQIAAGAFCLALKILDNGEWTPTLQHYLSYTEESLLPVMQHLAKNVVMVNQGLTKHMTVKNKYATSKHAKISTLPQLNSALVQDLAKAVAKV
Under “normalised enrichment score”, `L7P` is recorded as 0.125.
`G11I` — result for “normalised enrichment score”: 1.87.
`V3M` — result for “normalised enrichment score”: 0.0981.
`R5C` — result for “normalised enrichment score”: 0.799.
`S2E` — result for “normalised enrichment score”: 2.45.
For `R4E`, “normalised enrichment score” read 0.86.
For `R5D`, “normalised enrichment score” read -0.117.

Sample 4
Target: UDP-N-acetylglucosamine--peptide N-acetylglucosaminyltransferase 110 kDa subunit (OGT, Homo sapiens, UniProt O15294)
Chain of UniProt O15294 (whole entry, looked up): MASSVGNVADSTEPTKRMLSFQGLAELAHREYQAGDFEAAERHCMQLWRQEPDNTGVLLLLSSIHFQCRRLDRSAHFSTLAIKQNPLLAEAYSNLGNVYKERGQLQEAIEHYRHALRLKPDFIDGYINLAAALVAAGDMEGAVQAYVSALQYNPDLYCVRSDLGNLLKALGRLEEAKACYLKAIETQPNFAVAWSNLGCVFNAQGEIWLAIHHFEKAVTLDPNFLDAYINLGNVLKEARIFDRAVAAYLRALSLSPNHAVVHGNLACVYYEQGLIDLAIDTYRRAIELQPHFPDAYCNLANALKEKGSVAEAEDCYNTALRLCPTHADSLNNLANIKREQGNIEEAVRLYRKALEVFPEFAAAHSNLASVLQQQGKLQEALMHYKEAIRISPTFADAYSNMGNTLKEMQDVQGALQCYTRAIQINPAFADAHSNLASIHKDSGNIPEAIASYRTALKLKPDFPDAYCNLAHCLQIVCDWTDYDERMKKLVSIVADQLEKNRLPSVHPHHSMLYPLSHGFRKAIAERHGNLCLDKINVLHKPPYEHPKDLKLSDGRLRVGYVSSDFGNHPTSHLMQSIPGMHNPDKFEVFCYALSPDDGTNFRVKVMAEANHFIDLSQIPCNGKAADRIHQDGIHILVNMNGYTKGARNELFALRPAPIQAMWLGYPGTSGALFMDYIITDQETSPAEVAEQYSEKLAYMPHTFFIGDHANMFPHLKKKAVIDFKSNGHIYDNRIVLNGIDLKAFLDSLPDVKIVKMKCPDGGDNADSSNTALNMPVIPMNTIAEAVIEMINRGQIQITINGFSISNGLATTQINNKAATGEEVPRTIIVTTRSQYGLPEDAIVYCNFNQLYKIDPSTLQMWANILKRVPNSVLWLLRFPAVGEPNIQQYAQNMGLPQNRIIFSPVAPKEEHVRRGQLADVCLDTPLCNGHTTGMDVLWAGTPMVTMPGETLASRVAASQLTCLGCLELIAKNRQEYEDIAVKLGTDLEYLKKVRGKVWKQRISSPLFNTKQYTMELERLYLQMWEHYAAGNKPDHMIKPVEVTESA
Read-out: binding
Technique: phage display NGS
Molecule type: peptide
Concentration: concentration not given
Notes: panning round 2
Relative to: input library
`DQGMTKDTHHIHTHH` — result for “enrichment fold change”: 7.14.
`HPFHHNYVHYLSREQ` — result for “enrichment fold change”: 5.47.
For `HPHNMMQHHGNRFDM`, “enrichment fold change” read 7.09.
`FLSSFPPKYPIEYET` — result for “enrichment fold change”: 7.6.

Repeated from above (sample 4):
`DQGMTKDTHHIHTHH` — result for “enrichment fold change”: 7.14.
`FLSSFPPKYPIEYET` — result for “enrichment fold change”: 7.6.
`HPFHHNYVHYLSREQ` — result for “enrichment fold change”: 5.47.
